Results pooled from the literature.
Numbered parts are unrelated; each lists some results of a single study. Positions count from the first letter of the parent shown.

Block 1 — target: CCNF, cyclin fold, Cln2 fusion (human); technique: yeast growth competition, sequencing; sample: yeast; setting: strong parent motif; baseline: not given; reading: higher = stronger binding
Starting sequence: GMNC docking peptide (human); KNAKRNLSSEFAN; partner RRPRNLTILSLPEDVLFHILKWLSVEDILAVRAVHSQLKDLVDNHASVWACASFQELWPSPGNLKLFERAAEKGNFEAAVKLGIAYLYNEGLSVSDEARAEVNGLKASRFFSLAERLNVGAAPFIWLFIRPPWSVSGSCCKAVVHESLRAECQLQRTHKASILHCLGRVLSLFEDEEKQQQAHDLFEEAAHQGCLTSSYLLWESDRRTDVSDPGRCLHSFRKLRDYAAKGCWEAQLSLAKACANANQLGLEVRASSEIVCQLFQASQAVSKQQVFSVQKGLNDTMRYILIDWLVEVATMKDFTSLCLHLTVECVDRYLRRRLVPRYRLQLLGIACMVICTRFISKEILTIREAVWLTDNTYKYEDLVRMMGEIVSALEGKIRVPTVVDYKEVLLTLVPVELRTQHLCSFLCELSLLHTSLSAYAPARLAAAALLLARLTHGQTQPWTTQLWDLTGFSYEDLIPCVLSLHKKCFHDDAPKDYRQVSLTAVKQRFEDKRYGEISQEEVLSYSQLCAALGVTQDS
For `KNAKRNLSSEFQN [A12Q]`, “normalised enrichment score” read 0.497.
For `KNAKRNNSSEFAN [L7N]`, “normalised enrichment score” read 0.0133.
Under “normalised enrichment score”, `KNAKRNLSGEFAN [S9G]` is recorded as 0.228.
`KNAKRNRSSEFAN [L7R]`: “normalised enrichment score” -0.0182.
Under “normalised enrichment score”, `KNAKRNLSSEFGN [A12G]` is recorded as 0.66.
Under “normalised enrichment score”, `KNAKRNLSFEFAN [S9F]` is recorded as 3.95.
`KVAKRNLSSEFAN [N2V]` — result for “normalised enrichment score”: 0.327.
Under “normalised enrichment score”, `KNAKRNLSSHFAN [E10H]` is recorded as 0.407.
`KNAKRNLDSEFAN [S8D]`: “normalised enrichment score” 1.06.
`KNAKRNLSSEVAN [F11V]` — result for “normalised enrichment score”: 0.138.
`KNAKRNLSSTFAN [E10T]`: “normalised enrichment score” 0.697.
Under “normalised enrichment score”, `KNAKYNLSSEFAN [R5Y]` is recorded as -0.132.
`KNAKRNLSPEFAN [S9P]` — result for “normalised enrichment score”: 0.693.
Under “normalised enrichment score”, `KNAMRNLSSEFAN [K4M]` is recorded as 0.382.
Under “normalised enrichment score”, `KNRKRNLSSEFAN [A3R]` is recorded as 0.421.
`KNAKRNLSTEFAN [S9T]` — result for “normalised enrichment score”: 0.884.
Under “normalised enrichment score”, `KEAKRNLSSEFAN [N2E]` is recorded as 1.05.
`KNAKRNLSREFAN [S9R]` — result for “normalised enrichment score”: 1.38.
For `KNAKANLSSEFAN [R5A]`, “normalised enrichment score” read 0.336.
For `KNAKRNLSSEMAN [F11M]`, “normalised enrichment score” read 0.895.
Under “normalised enrichment score”, `KNGKRNLSSEFAN [A3G]` is recorded as 0.562.
`KNAKRNLSCEFAN [S9C]` — result for “normalised enrichment score”: 0.813.
For `KNAKRNLSSELAN [F11L]`, “normalised enrichment score” read 1.
For `KNAKRNLSSEFNN [A12N]`, “normalised enrichment score” read 0.779.
`KNALRNLSSEFAN [K4L]` — result for “normalised enrichment score”: 0.319.

Block 2 — technique: protein binding microarray; form: double-stranded DNA, one strand shown; sample: in vitro; concentration: not given; baseline: not given; reading: higher = stronger binding
Target: Histone acetyltransferase KAT6A, winged helix 2, GST fusion (KAT6A, Homo sapiens, UniProt Q92794, residues 85-181)
Setting: 8-mer, flanks averaged, mean of 2 arrays, mostly near background
Target sequence (chain): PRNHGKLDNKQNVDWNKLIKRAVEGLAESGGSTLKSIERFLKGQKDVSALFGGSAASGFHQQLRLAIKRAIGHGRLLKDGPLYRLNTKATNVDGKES
The E-score of `CGAGTTAA` is reported as 0.144.
For `GTAGTTGA`, the E-score was 0.0857.
The E-score of `ACATGGCC` is reported as -0.0666.
With `AGCGGGTG` the E-score was 0.114.
`ACGCTCCA` has an E-score of 0.124.
The E-score of `CGAGCAGA` is reported as 0.129.
With `CGCAGAGA` the E-score was -0.00924.
With `GGTGCTAA` the E-score was 0.00762.
With `AGTCTGTG` the E-score was -0.0886.
For `AAATCCAA`, the E-score was -0.0726.
For `AGGCGACT`, the E-score was -0.0195.
`CTAAGTGA` has an E-score of 0.046.
`TACCGGGA` has an E-score of -0.0335.
The E-score of `CATGAACG` is reported as 0.0214.
With `TCTGCCAA` the E-score was -0.0999.
With `GGCCGAAC` the E-score was 0.124.
With `ATCATCAG` the E-score was 0.0327.
`CAAATTGA` has an E-score of -0.0483.
`AACGCTTG` has an E-score of 0.016.
`TATGATCA` has an E-score of 0.0767.
`AATTAAAA` has an E-score of -0.0121.
`CAGAGGCG` has an E-score of 0.149.
`CAACCCCC` gave an E-score of -0.185.
`AACCGATT` has an E-score of -0.059.
`CTTCTAAA` has an E-score of -0.0258.

Block 3 — technique: universal PBM; form: double-stranded DNA, one strand shown; sample: in vitro; concentration: not given; reading: higher = stronger binding
Target: Sal-like protein 4, full length isoform B (SALL4, Homo sapiens, UniProt Q9UJQ4-2, residues 1-616)
Setting: 8-mer, flanks averaged, mean of replicates
The E-score of `CTGAGGTC` is reported as -0.23.
For `ACACGACG`, the E-score was 0.0608.
`GAGGGTTA` gave an E-score of 0.068.
With `CAATGCGG` the E-score was -0.193.
For `ACTGAGTC`, the E-score was -0.0814.
The E-score of `ATATTTGC` is reported as 0.38.
The E-score of `CCTGCGCA` is reported as -0.16.
The E-score of `CAATGCAG` is reported as -0.0859.
For `ATGAAAAA`, the E-score was 0.341.
`CTCGGTCC` has an E-score of -0.339.
`GTGTACTA` gave an E-score of 0.162.
`GATCTAAC` has an E-score of 0.0258.
With `CCCTCGCG` the E-score was -0.261.
`AGACTATA` has an E-score of 0.15.
The E-score of `CCCGTTAA` is reported as -0.123.
`ACGTACGG` gave an E-score of -0.165.

Block 4 — technique: DHFR PCA, dose-response; sample: yeast; setting: Hill fit, mean, not affinity; with: (+)-ABA, dose series; reading: lower = more sensitive
Target: ABI1, truncated, D143A, DHFR fusion (Arabidopsis thaliana, UniProt P49597)
Starting sequence: PYL1, truncated, DHFR fusion (Arabidopsis thaliana, UniProt Q8VZS8); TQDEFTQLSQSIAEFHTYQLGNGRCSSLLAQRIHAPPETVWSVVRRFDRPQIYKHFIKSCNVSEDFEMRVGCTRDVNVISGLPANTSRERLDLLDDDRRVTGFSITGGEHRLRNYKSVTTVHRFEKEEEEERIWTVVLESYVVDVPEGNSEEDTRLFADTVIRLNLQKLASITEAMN
With `Y18G` the ABA EC50 was 23.4 µM.
`V145S` gave an ABA EC50 of 71.5 µM.
With `E4Y` the ABA EC50 was 6.41 µM.
The ABA EC50 of `T6A` is reported as 2.4 µM.
`T1V` has an ABA EC50 of 0.822 µM.
For `R49G`, the ABA EC50 was 45.3 µM.
For `P36Q`, the ABA EC50 was 8.91 µM.
With `D65P` the ABA EC50 was 2.79 µM.
With `M176I` the ABA EC50 was 3.29 µM.
With `G71L` the ABA EC50 was 176 µM.
`S59H` has an ABA EC50 of 5.14 µM.
`D159L` has an ABA EC50 of 874 µM.
The ABA EC50 of `D65H` is reported as 2.65 µM.
With `T173F` the ABA EC50 was 16.1 µM.
For `T106H`, the ABA EC50 was 13 µM.
With `A30H` the ABA EC50 was 1.91 µM.
The ABA EC50 of `T135C` is reported as 3.26 µM.
For `E147T`, the ABA EC50 was 4.37 µM.
The ABA EC50 of `D95A` is reported as 120 µM.
`I52N` gave an ABA EC50 of 9.42 µM.
`A30C` has an ABA EC50 of 1.87 µM.
For `V137L`, the ABA EC50 was 60.7 µM.
`R90M` gave an ABA EC50 of 12.1 µM.
With `E174D` the ABA EC50 was 46.5 µM.
The ABA EC50 of `G23D` is reported as 3.36 µM.

Block 5 — target: UBE2Q1 UBC core domain (UniProt Q7Z7E8); technique: yeast two-hybrid; sample: yeast; setting: mostly zero background; baseline: not given; reading: higher = stronger interaction
B1: RC3H1 RING domain (UniProt Q5TC82); chain QAPQWTDFLSCPICTQTFDETIRKPISLGCGHTVCKMCLNKLHRKACPFDQTTINTDIELL
B2: NEURL1 RING domain (UniProt O76050); chain VTPGLGQWSDECTICYEHAVDTVIYTCGHMCLCYACGLRLKKALHACCPICRRPIKDIIKT
B3: TRIML1 RING domain (UniProt Q8N9V2); chain LMENLREELTCFICLDYFSSPVTTECGHSFCLVCLLRSWEEHNTPLSCPECWRTLEGPHFQS
B4: TRIM13 RING domain (UniProt O60858); chain MELLEEDLTCPICCSLFDDPRVLPCSHNFCKKCLEGILEGSVRNSLWRPAPFKCPTCRKETSATGINS
B5: TRIM5 RING domain (UniProt Q9C035); chain ILVNVKEEVTCPICLELLTQPLSLDCGHSFCQACLTANHKKSMLDKGESSCPVCRISYQPENIRP
B6: VPS41 RING domain (UniProt P49754); chain KGVLVDEENICESCLSPILPSDAAKPFSVVVFHCRHMFHKECLPMPSMNSAAQFCNICSAKNRGPGSAI
B7: MKRN1 RING domain (UniProt Q9UHC7); chain FAVQRSKDMVCGICMEVVYEKANPSERRFGILSNCNHTYCLKCIRKWRSAKQFESKIIKSCPECRITSNFVIPSE
Residues (chain): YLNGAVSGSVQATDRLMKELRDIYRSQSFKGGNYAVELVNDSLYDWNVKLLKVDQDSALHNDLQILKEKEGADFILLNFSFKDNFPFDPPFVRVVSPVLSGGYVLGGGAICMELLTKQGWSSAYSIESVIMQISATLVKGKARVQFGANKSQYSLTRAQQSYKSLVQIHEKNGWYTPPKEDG
`VEPSEENSKDCVVCQNGTVNWVLLPCRHTCLCDGCVKYFQQCPMCRQFVQESFALC (CGRRF1 RING domain (UniProt Q99675))` — result for “lacZ reporter activity”: 0.
Under “lacZ reporter activity”, `B1 (RC3H1 RING domain)` is recorded as 0.
Under “lacZ reporter activity”, `QVDKAVFHMQSVKCLKCQEQKRAVLPCQHAALCELCAEGSECPICQPGRAHTLQS (UNK RING domain (UniProt Q9C0B0))` is recorded as 0.
`B2 (NEURL1 RING domain)` — result for “lacZ reporter activity”: 0.
Under “lacZ reporter activity”, `B3 (TRIML1 RING domain)` is recorded as 0.
`B4 (TRIM13 RING domain)` — result for “lacZ reporter activity”: 0.
`B5 (TRIM5 RING domain)`: “lacZ reporter activity” 0.
`B6 (VPS41 RING domain)` — result for “lacZ reporter activity”: 0.
Under “lacZ reporter activity”, `GAAPGPEAAECLVCSELALLVLFSPCQHRTVCEECARRMKKCIRCQVVVSKKLRPD (MIB2 RING domain (UniProt Q96AX9))` is recorded as 0.
Under “lacZ reporter activity”, `B7 (MKRN1 RING domain)` is recorded as 0.
Under “lacZ reporter activity”, `DHGAVGQEMCCPICCSEYVKGEVATELPCHHYFHKPCVSIWLQKSGTCPVCRCMFPPPL (PJA1 RING domain (UniProt Q8NG27))` is recorded as 0.

For quick reference, copied from above (block 1):
Under “normalised enrichment score”, `KNAKRNLSSHFAN [E10H]` is recorded as 0.407.
`KNAKRNLDSEFAN [S8D]`: “normalised enrichment score” 1.06.
`KNAKRNLSSEVAN [F11V]` — result for “normalised enrichment score”: 0.138.
`KNAKRNLSSTFAN [E10T]`: “normalised enrichment score” 0.697.
Under “normalised enrichment score”, `KNAKYNLSSEFAN [R5Y]` is recorded as -0.132.
`KNAKRNLSPEFAN [S9P]` — result for “normalised enrichment score”: 0.693.
Under “normalised enrichment score”, `KNAMRNLSSEFAN [K4M]` is recorded as 0.382.
Under “normalised enrichment score”, `KNRKRNLSSEFAN [A3R]` is recorded as 0.421.
`KNAKRNLSTEFAN [S9T]` — result for “normalised enrichment score”: 0.884.
Under “normalised enrichment score”, `KEAKRNLSSEFAN [N2E]` is recorded as 1.05.
`KNAKRNLSREFAN [S9R]` — result for “normalised enrichment score”: 1.38.
For `KNAKANLSSEFAN [R5A]`, “normalised enrichment score” read 0.336.
For `KNAKRNLSSEMAN [F11M]`, “normalised enrichment score” read 0.895.
Under “normalised enrichment score”, `KNGKRNLSSEFAN [A3G]` is recorded as 0.562.
`KNAKRNLSCEFAN [S9C]` — result for “normalised enrichment score”: 0.813.
